Measurements gathered from unrelated publications.
Every numbered part comes from another study and shows a few of its results, in no order.

Set 1
Target: Fragile X messenger ribonucleoprotein 1, C-terminal low-complexity region (Fmr1, Mus musculus, UniProt P35922)
Technique: RNA Bind-n-Seq
Form: RNA
Sample: in vitro
Tested at: 200 nM
Setting: whole 134-nt RNA, ends assumed
With: 150 mM LiCl
Reference: input library
Direction: higher = stronger binding
All molecules: 7-deaza-guanosine replaces G
`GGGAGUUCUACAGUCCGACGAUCUAACUUUAGAGGAGGAUCUGAUGGAUAUGGCAGUGGACUUGGAUUUGGGGAUGGCUAUAAUGGGUAUGGAGGAGGACCUGGAGGUGGCAAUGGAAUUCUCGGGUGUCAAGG` gave a log2 enrichment of 0.291.
With `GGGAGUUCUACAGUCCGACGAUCCACAGACAACACGCACCCACACAGACACAGCGGGAAGGGGUUGGGAUGGGGACAGGGUGCACAGCAGGGCGGGGUAGGACCCCAGCCCCUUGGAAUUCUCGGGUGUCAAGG` the log2 enrichment was -0.295.
`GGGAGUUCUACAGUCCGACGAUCGCAGGAAGUAAAAACAAAUGGAAAUGCUCCGGAUAGUGGCAGGGGUGGGGGUUGCUAAGGAAAGGGUGGGAUGGGAGUGGGUAAAGAGUUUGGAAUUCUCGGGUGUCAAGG` has a log2 enrichment of 1.75.
With `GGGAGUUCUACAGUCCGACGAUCUCAAGUCCUGUGCUACACAUCGUAUGUACCGAAUCGGCCCGGGCCCGGGCCCGGGAAAGUAUUAUGUUACGCCGUUCGGAUCUGCACUUCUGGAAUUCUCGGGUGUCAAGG` the log2 enrichment was -1.27.
For `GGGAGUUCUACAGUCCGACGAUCUGACUUUAGGAGAUACCUUAACUCGACGUUCCAUUAGCCAGCAGAAGUCCGGAGUUUCCAUUACCAUUGAUGACCCAGUCCGAACUGCCCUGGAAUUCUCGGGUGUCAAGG`, the log2 enrichment was -1.16.

Set 2
Target: Histone acetyltransferase KAT6A, both winged helices, GST fusion (KAT6A, Homo sapiens, UniProt Q92794, residues 1-181)
Technique: protein binding microarray
Form: double-stranded DNA, one strand shown
Sample: in vitro
Tested at: not given
Setting: 8-mer, flanks averaged, mean of 2 arrays, mostly near background
Reference: not given
Direction: higher = stronger binding
Residues (chain): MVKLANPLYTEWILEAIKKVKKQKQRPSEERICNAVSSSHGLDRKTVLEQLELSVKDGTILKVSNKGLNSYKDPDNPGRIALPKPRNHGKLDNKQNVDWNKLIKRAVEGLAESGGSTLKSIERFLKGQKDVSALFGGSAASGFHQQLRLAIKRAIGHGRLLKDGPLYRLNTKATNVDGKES
The E-score of `AATACATT` is reported as -0.0734.
For `CCGTGATC`, the E-score was 0.201.
`AAAAGGGT` has an E-score of -0.0961.
`CTTAGATA` has an E-score of 0.00651.
The E-score of `AGTTATGC` is reported as 0.0905.

Set 3
Target: Transcription factor Sp1 (SP1, Homo sapiens, UniProt P08047, residues 1-785, full length assumed)
Sequence of UniProt P08047 (whole entry, looked up): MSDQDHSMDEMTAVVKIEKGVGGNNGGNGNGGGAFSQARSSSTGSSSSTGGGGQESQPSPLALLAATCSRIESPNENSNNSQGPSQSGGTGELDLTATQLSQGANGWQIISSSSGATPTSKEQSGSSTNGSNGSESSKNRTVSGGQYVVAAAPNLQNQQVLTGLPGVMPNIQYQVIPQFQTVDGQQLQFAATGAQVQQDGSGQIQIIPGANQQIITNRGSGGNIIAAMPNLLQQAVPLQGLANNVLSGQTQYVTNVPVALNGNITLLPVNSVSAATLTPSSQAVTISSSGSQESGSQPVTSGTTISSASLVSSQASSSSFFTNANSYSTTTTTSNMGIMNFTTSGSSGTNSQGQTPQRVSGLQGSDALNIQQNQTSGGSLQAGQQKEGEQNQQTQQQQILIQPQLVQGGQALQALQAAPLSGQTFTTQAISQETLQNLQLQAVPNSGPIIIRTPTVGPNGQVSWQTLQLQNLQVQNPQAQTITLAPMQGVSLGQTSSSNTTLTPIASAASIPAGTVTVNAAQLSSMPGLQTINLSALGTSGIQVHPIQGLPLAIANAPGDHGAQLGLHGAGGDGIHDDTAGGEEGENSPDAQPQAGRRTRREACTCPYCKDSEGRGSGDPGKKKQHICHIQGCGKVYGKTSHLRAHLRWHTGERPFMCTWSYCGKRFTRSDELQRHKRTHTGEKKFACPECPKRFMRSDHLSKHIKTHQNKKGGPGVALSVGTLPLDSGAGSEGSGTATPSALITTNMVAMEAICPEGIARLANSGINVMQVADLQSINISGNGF
Technique: protein-binding microarray
Form: double-stranded DNA, one strand shown
Sample: in vitro
Tested at: not given
Setting: k-mer, scored over probes, only values ≥0.25
Direction: higher = stronger binding
`GTGGGATA` has an E-score of 0.316.
`AACGTTGT` has an E-score of 0.28.
`TACACATA` has an E-score of 0.324.
The E-score of `CCCCTCGA` is reported as 0.332.

Single results of other studies
For `PhoQ, residues 284 288 289 292 302 303 SSLVEF`, the fold induction was 1.56 (PhoP, residues 12 14 15 18 19 NNFVT (Escherichia coli, UniProt P23836); Sort-seq, measured: YFP reporter; E. coli; PhoQ-PhoP variant library, with: 10 µM Mg2+; reference: high Mg2+ state, higher = stronger signaling).
